Results of several laboratories.
Protocols differ between the studies behind these lines. Numbers after ± are the reported error.

| SMILES | assay | system | setting | scale | endpoint | result |
| --- | --- | --- | --- | --- | --- | --- |
| CCOC(=O)N1CCC(Nc2nc3c(c(=O)n(C)c(=O)n3C)n2Cc2cccc(C)c2)CC1 | metabolic stability | rat, liver microsomes | – | – | half-life | 0.0333 h |
| [123I]c1ccc2nc(-c3ccc(-n4ccnn4)nc3)cn2c1 | – | male Wistar rat, brain | intravenous, 4 MBq, 1 h | – | tracer uptake | 0.044 %ID/g |
| CCCC(CCC)NC(=O)c1ccc(O)c(OC)c1 | LC-MS | Sprague-Dawley rats, pooled sexes, plasma | oral, 200 mg/kg of parent drug, 1 h | reference: total peak area | metabolite peak area | 24.3% |
| C[N+](C)(C)CC(CC(=O)[O-])OC(=O)CCC(=O)Nc1ccn([C@@H]2O[C@H](CO)[C@@H](O)C2(F)F)c(=O)n1 (some centres unmarked) | – | THU-treated rat plasma | 15.00 ng/mL, -80 to 20 °C, three freeze-thaw cycles, low QC | – | measured concentration | 15.2 ± 1.6 ng/mL |
| Cc1ccc(C(=O)N[C@@H](CO)CC(C)C)cc1CO | LC-MS | Sprague-Dawley rat, both sexes, rat liver microsomes | 10 µM of parent drug, 10 min, pH 7.4, with: NADPH | reference: parent drug at time zero | metabolite peak area | 0.2% |
| COCCOCCOCCOCCC(=O)NCc1cc(CNC(=O)CCOCCOCCOCCOC)cc(-c2cc3cc4nc(c(-c5ccc(CCC(=O)O)cc5)c5[nH]c(cc6nc(c(OC)c2[nH]3)CC6(C)C)cc5-c2cc(CNC(=O)CCOCCOCCOCCOC)cc(CNC(=O)CCOCCOCCOCCOC)c2)CC4(C)C)c1 | – | DMF | room temperature | – | Qy absorption FWHM | 21 nm |
| CC(C)(O)c1ncc([S@](N)(=O)=NC(=O)Nc2c3c(cc4c2CCC4)CCC3)s1 | – | healthy human volunteers, plasma | oral, 600 mg single dose, fasted, spray-dried dispersion | – | dose-normalised AUC(0-t) | 1320 ng·h/mL/mg |
| CC(C)(C)ONc1nc(Nc2ccnc(C(F)(F)F)c2)nc(-c2cccc(C(F)(F)F)n2)n1 | – | female Balb/cA nude mice xenograft, plasma | oral, 18.05 mg/kg | – | half-life | 7.43 h |
| C[C@H](Oc1cc(-c2cnn(C3CCN(CC[18F])CC3)c2)cnc1N)c1c(Cl)ccc(F)c1Cl | PET imaging | nude mouse, liver | iv, 5 min post injection | – | tracer uptake | 6.8 ± 0.8 %ID/cc |
| [11CH3]c1ccc2nc(C3CCC3)n(-c3ccc4[nH]ncc4c3)c2n1 | – | standard human adult, adrenals | – | – | absorbed radiation dose | 3.8 µSv/MBq |
| COCC1CN(C2CCN(c3cc(OC)c(Nc4ncc(Br)c(Nc5ccc6c(c5P(C)(C)=O)OCCO6)n4)cc3C)CC2)C1 | – | human, plasma | oral, 10 to 240 mg, single dose first-in-human | – | t1/2 | 24.3 to 34.5 h |
| C=CC(=O)Nc1cc(Nc2nccc(-c3cn(C4CC4)c4ccccc34)n2)c(OC)cc1NC | LC-RAM/HRMS | human male, plasma | oral, 110 mg, 24 h | reference: total radioactivity | share of radioactivity | 3.23% |
| CC(C)C[C@@H]1NC(=O)[C@@H](Cc2ccccc2)NC(=O)[C@H](CCN)NC(=O)[C@@H](NC(=O)[C@H](CN)NC(=O)[C@@H](NC(=O)C(CCN)CC2CCCCC2)[C@@H](C)O)CCNC(=O)[C@H]([C@@H](C)O)NC(=O)[C@H](CCN)NC(=O)[C@H](CCN)NC1=O (some centres unmarked) | – | CD-1 mouse male, kidney | subcutaneous, 17.2 mg/kg, 4 h | – | tissue concentration | 430000 ng/g |
| Cn1c(=O)oc2ccc(-c3ccc(CC(C#N)NC(=O)C4CNCCCO4)c(F)c3)cc21 (centres unmarked) | – | human, plasma | 40 mg once daily, day 28, geometric mean | – | AUC(0-t) | 8160 ng·h/mL |
| COC(=O)C(c1ccccc1Cl)N1CCC(SCC(=O)c2cccc(OC)c2)C(=CC(=O)O)C1 (mixture of isomers) | HPLC-MS/MS | feline EDTA plasma | 100 ng/mL, 24 h, -20 °C, storage stability | – | deviation from nominal | 6% |
| CCOC(=O)c1[nH]c(C)c(/C=C/C2=[N+]3C(=C(c4cc(OC)cc(OC)c4)c4c(C)c(I)c(/C=C/c5c(C)[nH]c(C(=O)OCC)c5C)n4[B-]3(F)F)C(C)=C2I)c1C | – | dichloromethane | – | – | Stokes shift | 665 cm⁻¹ |
| CCc1cc(Nc2nc(-c3ccc(-n4cnc(C)c4)c(F)c3)cs2)c(C)cc1C | – | human, both sexes, plasma | oral, 400 mg, day 1, multiple dose, geometric mean | – | apparent terminal volume (Vz/F) | 283000 mL |
| NC[C@@H](C(=O)Nc1ccc(-c2cn[nH]c2)cc1)c1ccccc1 | OECD 405 eye irritation | New Zealand White rabbit, eye | topical, 0.1%, 96 h (day 5) | direction not given | total eye irritation score | 0 |
| O=C(CCc1ccc(CNC(C(=O)O)C2CCCCC2)cn1)NO (centres unmarked) | – | human, plasma | oral, 20 mg once daily, day 1, geometric mean | – | AUC(0-t) | 97.8 ng·h/mL |
| CC[C@@H](C)N([11CH3])C(=O)c1nc(-c2ccccc2Cl)c2ccccc2n1 | – | male rhesus monkey, plasma | intravenous, baseline | – | time to 50% parent radioligand | 35.1 min |
| COC(=O)c1ccc(-c2cn(Cc3cc(Cl)ccc3O[11CH3])nn2)cc1 | PET, Logan plot, t*=40 min | rhesus monkey, brain Putamen | dose not given | – | distribution volume | 0.574 mL/cm³ |
| CC(C)c1cnc(-c2cc(Cl)ccc2F)cc1Nc1ccncc1C(=O)NC(CO)CO | measured: Vomiting | solid tumour patients | oral, dose not given, phase I monotherapy | – | treatment-related adverse events | 9.5% |
| CCCC[C@@H]1NC(=O)[C@@H](NC(=O)[C@H](CCC(=O)O)NC(=O)CNC(=O)CN2CCN(CC(=O)O)CCN(CC(=O)O)CCN(CC(=O)O)CC2)CCCCNC(=O)C[C@@H](C(N)=O)NC(=O)[C@H](C(C)C)NC(=O)[C@@H]2CCCN2C(=O)[C@H](CCCNC(=N)N)NC(=O)CNC(=O)[C@H](Cc2c[nH]c3ccccc23)NC(=O)[C@H](CCCNC(=N)N)NC(=O)[C@@H](Cc2ccccc2)NC(=O)[C@H](Cc2c[nH]cn2)NC(=O)[C@H](CCC(=O)O)NC1=O [gallium-67 labelled] | – | C57 mice, B16/F10 lung metastases, brain | intravenous, 0.037 MBq/mouse, 2 h | – | tissue uptake | 0.03 ± 0.02 %ID/g |
| CCCC[C@H](NC(=O)[C@H](CC(C)C)N(C)C(=O)CNC(=O)[C@@H](NC(=O)[C@H](Cc1ccccc1)NC(=O)[C@H](CCCCN)NC(=O)[C@@H](N)CC(=O)O)C(C)C)C(N)=O | – | anesthetized Gottingen minipig | subcutaneous, 100 µg/kg | reference: baseline | heart rate | 0.48 ± 6.14% |
| CCCC[C@H](NC(=O)CNC(=O)CNC(=O)CN1CCN(CC(=O)O)CCN(CC(=O)O)CCN(CC(=O)O)CC1)C(=O)N[C@H]1CC(=O)NCCCC[C@@H](C(N)=O)NC(=O)[C@H](Cc2c[nH]c3ccccc23)NC(=O)[C@H](CCCNC(=N)N)NC(=O)[C@@H](Cc2ccccc2)NC(=O)[C@H](Cc2c[nH]cn2)NC1=O [gallium-67 labelled] | – | female C57 mice, B16/F1 melanoma, lung | intravenous, 0.037 MBq, 2 h | – | tissue uptake | 0.4 ± 0.15 %ID/g |
| CCCC[C@H](NC(=O)CNC(=O)CNC(=O)CN1CCN(CC(=O)O)CCN(CC(=O)O)CC1)C(=O)N[C@H]1CC(=O)NCCCC[C@@H](C(N)=O)NC(=O)[C@H](Cc2c[nH]c3ccccc23)NC(=O)[C@H](CCCNC(=N)N)NC(=O)[C@@H](Cc2ccccc2)NC(=O)[C@H](Cc2c[nH]cn2)NC1=O [copper-64 labelled] | – | female C57 mouse, B16/F1 melanoma | intravenous, 0.037 MBq, 2 h | reference: tumour over stomach | uptake ratio | 16.3 |
| CC(O)c1nc(-c2ccc3c(c2)CCC3NC(=O)c2cnn(C)c2)no1 (centres unmarked) | – | human, plasma | oral, 20 mg aficamten, median | – | t1/2 | 95 h |
| N=C(N)NCCC[C@@H]1NC(=O)[C@H](Cc2c[nH]c3ccccc23)NC(=O)[C@@H](CC2CCCCC2)NC(=O)[C@@H]2CCCN2C(=O)[C@@H](NC(=O)CCc2ccccc2)CCCNC1=O | two-compartment model | C57BL/6J mice, plasma | intravenous, 1 mg/kg | – | central volume (V1/F) | 0.87 mL |
| CCCCCCCCCCCCCCCC(=O)N[C@@H](CCCCN)C(=O)N[C@@H](CCCCN)C(=O)N[C@@H](CO)C(=O)N[C@@H](CCCNC(=N)N)C(=O)N[C@@H](C)C(=O)N[C@@H](CC(C)C)C(=O)N[C@@H](Cc1ccccc1)C(N)=O | – | cynomolgus monkey, male | 30 mg/kg, day 1 | – | activated partial thromboplastin time | 30.9 ± 5.7 s |

Excerpt of the above:
| SMILES | assay | system | setting | scale | endpoint | result |
| --- | --- | --- | --- | --- | --- | --- |
| O=C(CCc1ccc(CNC(C(=O)O)C2CCCCC2)cn1)NO (centres unmarked) | – | human, plasma | oral, 20 mg once daily, day 1, geometric mean | – | AUC(0-t) | 97.8 ng·h/mL |
| CC[C@@H](C)N([11CH3])C(=O)c1nc(-c2ccccc2Cl)c2ccccc2n1 | – | male rhesus monkey, plasma | intravenous, baseline | – | time to 50% parent radioligand | 35.1 min |
| COC(=O)c1ccc(-c2cn(Cc3cc(Cl)ccc3O[11CH3])nn2)cc1 | PET, Logan plot, t*=40 min | rhesus monkey, brain Putamen | dose not given | – | distribution volume | 0.574 mL/cm³ |
| CC(C)c1cnc(-c2cc(Cl)ccc2F)cc1Nc1ccncc1C(=O)NC(CO)CO | measured: Vomiting | solid tumour patients | oral, dose not given, phase I monotherapy | – | treatment-related adverse events | 9.5% |
